Results gathered from unrelated publications.
Compare with care: the assays were run in different laboratories. Several values in a cell are separate wells, animals, samples, runs or records. ± gives the spread as reported.

CC(C)[C@@H]1NC(=O)CNC(=O)[C@H](CC(N)=O)NC(=O)[C@H](CCCNC(=N)N)NC(=O)[C@H](Cc2ccc(O)cc2)NC(=O)[C@H](C(C)C)NC(=O)[C@@H](NC(=O)[C@@H](NC(=O)[C@H](CC(N)=O)NC(=O)[C@H](Cc2c[nH]c3ccccc23)NC(=O)[C@H](C)NC(=O)[C@H](Cc2ccccc2)NC(=O)CN)C(C)C)CSSC[C@@H](C(=O)N[C@@H](Cc2cnc[nH]2)C(=O)N[C@@H](CCCNC(=N)N)C(=O)N[C@@H](CCCNC(=N)N)C(=O)N[C@@H](C)C(=O)N[C@@H](CC(N)=O)C(N)=O)NC(=O)[C@H](C(C)C)NC(=O)[C@H](CCCNC(=N)N)NC1=O  remaining peptide (HPLC; mouse kidney homogenate; 2560 µM, 6.00 h, 37 °C, 50 mg/mL tissue): 23.7% and 22.2% and 28.7%
CC(C)n1c(C2CCNCC2)nc2c([N+](=O)[O-])c(Br)c(Br)cc21  grade ≥3 adverse events (measured: Thrombocytopenia; AML patients; dose not given, all doses): 33%
C[C@]1(CO)Cc2ncn(-c3ccc(C#N)c(Cl)c3)c2C(=O)O1  AUC(0-inf) (human, plasma; 40 mg, first dose fasted): 8.65 µM·h
Cn1ncc(-c2nc(N[C@H]3CC[C@H](N)CC3)ncc2Cl)c1CC1CC1  adverse event incidence (measured: hypokalemia grade 3 or higher; human patients phase I; dose not given): 23%
O=c1cc(-c2ccc(O)c(O)c2)oc2cc(O)cc(O)c12  urinary excreted amount, total (male Sprague-Dawley rat, obese; oral, 100 mg/kg of neohesperidin, 24 to 36 h, after β-glucuronidase/sulfatase hydrolysis): 96.8 ± 14 ng
C1=Cc2nc1cc1ccc([n-]1)c(C1CC1)c1nc(cc3ccc([n-]3)c2C2CC2)C=C1.CC(=O)[O-].[Mn+3]  mean plasma concentration (LC-MS/MS; Sprague-Dawley rat, plasma; oral gavage, dose not given, 240 min): 299 ng/mL
CN1CC[C@@H](c2c(O)cc(O)c3c(=O)cc(-c4ccc(C(F)(F)F)cc4Cl)oc23)[C@@H]1CO  patients with adverse event (measured: Chills; B-cell malignancies or AML; oral, 50 mg, continuous dosing): 12.5%
CO[C@H]1C[C@@H]2CC[C@@H](C)[C@@](O)(O2)C(=O)C(=O)N2CCCC[C@H]2C(=O)O[C@H]([C@H](C)C[C@@H]2CC[C@@H](OC(=O)NCCOCCOCCOCCOCCOCCOCCOCCOCCC(=O)N3CCc4cc(Cn5nc(-c6ccc7oc(N)nc7c6)c6c(N)ncnc65)ccc4C3)[C@H](OC)C2)C[C@@H](O)[C@H](C)/C=C(\C)[C@@H](O)[C@@H](OC)C(=O)[C@H](C)C[C@H](C)/C=C/C=C/C=C/1C  vomiting incidence (patients with advanced solid tumours; intravenous, 10 mg weekly, grade 3 or higher): 0%
O=C(O)CCCOc1ccc(F)cc1-c1cc(-c2ccccc2C(F)(F)F)n(-c2ccccc2)n1  organ weight (female Crl:CD(SD) rats, salivary glands; intravenous, 25 µg/kg, 1 d): 0.42 ± 0.03 g
N[C@@H]1c2ccccc2OC12CCN(c1cnc3c(N4CCCc5ncccc54)n[nH]c3n1)CC2  incidence grade ≥3 TEAE (patients advanced metastatic solid tumours; oral, dose not given, dose escalation total): 50%
CC(=O)c1c(C)c2cnc(Nc3ccc(C4CCN(CCS(C)(=O)=O)CC4)cn3)nc2n(C2CCCC2)c1=O  incidence of ALT increased (HR+/HER2- advanced breast cancer patients; oral, dose not given, all grades): 26%
O=[N+]([O-])NC1=NCCN1Cc1ccc(Cl)nc1  milk fat partition ratio (cow whole milk; 20 nM; reference: milk fat over skim milk): 0.51
CC1(C)NC(=O)N(c2ccc(F)c(CC(F)(F)F)c2)C1=O  toxicity (Schistosoma mansoni-infected NMRI mice; 10 mg/kg): not toxic
COc1cccc(Oc2ccccc2NC(=O)CNC(=O)c2cccc3ccccc23)c1  alkaline phosphatase (esterase-deficient SCID mice, male; oral, 15 mg/kg/day, 14 days, toxicity study): 127 U/L and 170 U/L and 120 U/L
